Measurements from different studies.
Protocols differ between the studies behind these lines. ± marks the error that the study gave.

Structure (SMILES) | test | test system | conditions | how to read | endpoint | result
CC(C)(C(=O)N1CCOc2c(C#N)cncc2C1)C(F)F | measured: CSF leakage | human | oral, 10 mg, CSF pharmacokinetic cohort |  | subjects with adverse event | 16.7%
O=C1Cc2cc(CCN3CCN(c4nsc5ccccc45)CC3)c(Cl)cc2N1 |  | male Hartley guinea pig, anaesthetized | intravenous, 0.3 mg/kg, baseline before infusion |  | QTc interval | 366 ± 2 ms
CCN(Cc1ccc(F)cc1)c1ccc(CO)c(Cl)c1 |  | male F344 rat, serum | oral, 100 mg/kg/day, 2 days |  | GGT | 2.3 U/L
O=C(COc1ccc(Cl)cc1)NC12CC(c3nnc([C@H]4C[C@@H](OC(F)(F)F)C4)o3)(C1)C2 |  | human both sexes | oral, 100 mg once daily, 14 days |  | participants with TEAE | 100%
N[C@@H]1c2ccccc2OC12CCN(c1cnc3c(N4CCCc5ncccc54)n[nH]c3n1)CC2 |  | advanced metastatic solid tumour patients, plasma | oral, 50 mg once daily, cycle 1 day 1, geometric mean |  | AUC(0-tau) | 4510 ng·h/mL
O=C(Nc1nc2cccc(-c3ccc(CN4CCS(=O)(=O)CC4)cc3)n2n1)C1CC1 | measured: diarrhoea | human rheumatoid arthritis patients | oral, 75 mg once daily, 4 weeks, regardless of relatedness |  | treatment-emergent adverse events | 0%
O=C1c2ccncc2C(=O)c2c1[nH]c1ccccc21 |  | Sprague-Dawley rat female, plasma | intravenous, 1 mg/kg |  | terminal half-life | 3.4 ± 0.7 h
Cc1cnc(N2CC3(CCOCC3)C2)c(C(=O)Nc2ccc(C(=O)N3CCc4cc(C(=O)Nc5c(C)cccc5F)sc4-c4ccccc43)cc2)c1 |  | human, nasal epithelial lining fluid | inhaled, 5 mg twice daily, 84 h |  | concentration | 6270 ng/mL
O=[N+]([O-])c1cnc2ccccc2c1O | haemolysis | sheep erythrocytes | 1 h, pH 7.5 |  | HC50 | > 128 µg/mL
CC(C)NCC(O)COc1cccc2ccccc12 (stereo not drawn) |  | male Hartley guinea pig, anaesthetized | intravenous infusion, 3 mg/kg, 10 min infusion, post-infusion |  | QTc interval | 350 ± 0.4 ms
Cn1c(C(F)(F)F)cc(=O)n(-c2cc(Oc3cccnc3OCC(=O)O)c(Cl)cc2F)c1=O |  | Crl:CD(SD) rats, female, plasma | oral diet, 800 ppm in diet, day 1, 90-day toxicity study |  | AUC(0-24 h) | 19000 ng·h/mL
O=C1NCCc2nc(OCc3cccc(F)c3)ccc21 | measured: loss of Escape | Sprague-Dawley rat male | oral, 100 mg/kg, 4 h | direction not given | Irwin test score | 0.4
COC(=O)[C@H](CCSC(F)(F)F)NS(=O)(=O)c1cccc(Cl)c1O | colloidal aggregate formation, dynamic light scattering | 50 mM potassium phosphate buffer | 200 µM, pH 7.0, 1% DMSO | higher = more aggregation | DLS scattered light intensity | 646000 counts/s
CO[C@H]1CC[C@H](N2C(=O)CNc3ncc(-c4ccc(C(C)(C)O)nc4)nc32)CC1 |  | patients, urine | oral, 60 mg, day -1, geometric mean |  | urinary excretion Ae(0-24 h) | 51900 ng
CNCCOC12CC3(C)CC(C)(CC(Cn4ncc(-c5ccc(N6CCc7cccc(C(=O)Nc8nc9ccccc9s8)c7C6)nc5C(=O)O)c4C)(C3)C1)C2 |  | beagle dog, male, anaesthetised | intravenous bolus, 0.03 mg/kg, 105 min | reference: baseline | PR interval change | -9 ms
Cc1c(C(=O)O)ccc2c3n(nc12)[C@@H]1[C@H](C3)N(CC2CC2)[C@@]2(C(=O)Nc3cc(Cl)ccc32)[C@H]1c1cccc(Cl)c1F |  | female BALB/c nude mice, SJSA-1 xenograft, plasma | oral, 1 mg/kg twice daily, 2 doses, individual animals |  | AUC(0-t) | 24.2 µM·h
C=CC(=O)NC1CCN(c2ncc3ncnc(Nc4ccc(Oc5ccc6c(c5)ncn6C)c(C)c4)c3n2)CC1 | measured: total radioactivity | healthy male human, whole blood and plasma | oral, 60 mg, 264 h, geometric mean |  | blood-to-plasma ratio | 3.79
Cc1ccc(Sc2ccccc2N2CCNCC2)c(C)c1 | measured: hot flush | healthy adult men | oral, 5 mg daily, 12 days |  | participants with TEAE | 0%
C=CC(=O)N1CCC(c2ccc(C(N)=O)c(-c3ccc(Oc4ccccc4)cc3)n2)CC1 |  | relapsed/refractory mantle cell lymphoma patients | oral, 150 mg once daily, part, CTCAE v4.03 |  | serious TEAE rate | 0%

Structure (SMILES) | test | test system | conditions | how to read | endpoint | result
CNCc1ccc(-c2[nH]c3cc(F)cc4c3c2CCNC4=O)cc1 |  | patients | oral, 360 mg twice daily, all grades |  | asthenia/fatigue incidence | 62.5%
COc1ccc(-c2c(-c3ccc(C#N)c(F)c3)nc(N3CCC(N)CC3)n(C)c2=O)cc1F |  | relapsed/refractory MZL patients | oral, 60 mg, dose expansion |  | discontinuation due to AE | 0%
[O]=[Co].[O]=[Co][O][Co]=[O] |  | Crl:CD(SD) rat female, blood | oral, 734 mg Co/kg/day, 90 days |  | haemoglobin | 11.1 mmol/L
COc1ccc2c(c1)CN(C(=O)CCN1CCC(Cc3ccccc3)CC1)CC[S@@+]2[O-] |  | healthy male volunteers, urine | intravenous, 0.01 mg/kg | reference: dose | urinary excretion | 7.07 ± 1.7%
Cc1ccc(C)c(OCCCC(C)(C)C(=O)O)c1 |  | human, plasma | oral, dose not given, day 15 predose, mean |  | trough plasma concentration | 2030 ng/mL
Cn1cnc2c(F)c(Nc3ccc(Br)cc3Cl)c(C(=O)NOCCO)cc21 | population PK model | human, plasma | oral, nonlinear absorption model, fed |  | Vmax of absorption | 35100 nmol/h
Cl.[2H]C([2H])([2H])CC(=O)c1cnc(NC(=O)C2CC2)cc1Nc1cccc(-c2ncn(C([2H])([2H])[2H])n2)c1OC |  | human, fed, multiple dose | oral, 20 mg twice daily, liquid formulation, day 7, geometric mean |  | Ctrough | 81.9 ng/mL
NC(=O)N1CCc2ccc(NS(=O)(=O)c3cc(Cl)cc(Cl)c3O)cc21 | colloidal aggregate formation, dynamic light scattering | 50 mM potassium phosphate buffer | 200 µM, pH 7.0, 1% DMSO | higher = more aggregation | DLS scattered light intensity | 550000 counts/s
N#Cc1ccc2c(c1)[C@H]1CCCN(C(=O)c3ccc4[nH]cnc4c3)[C@H]1C2 |  | human | 160 mg, day 7 |  | minimum ACTH level | 2.9 pmol/L
O=C1NC(=O)C(Cc2ccc(O)cc2)S1 (stereo not drawn) | haemolysis | sheep erythrocytes | 1 h, pH 7.5 |  | HC50 | > 128 µg/mL
CCNCCCNC/C=C\CNCCCNCC | LC-MS/MS | cancer patients, plasma | intravenous infusion, 100 mg, 60 min infusion, median, cycle 1 |  | volume of distribution | 5.22 L/kg
C[C@@H](Nc1cc(F)cc(F)c1)c1cc(C(=O)N(C)C)cc2c(=O)cc(N3CCOCC3)oc12 | measured: Diarrhea | advanced solid tumour patients | oral, dose not given, dose expansion |  | related serious adverse events | 0%
CCOc1c([C@H](C)n2nc(C)c3c(N)ncnc32)cc(Cl)c(F)c1[C@@H]1CNC(=O)C1 |  | human, all cohorts, plasma | oral, 20 mg, day 15 |  | Cmax | 1810 nM
COc1ccnc(C(N)=O)c1O | soil adsorption | soil | pH 6.9, organic carbon 0.8 % |  | Freundlich coefficient KF | 14.2 mL/g
COC1=C(OC)[C@H](O)[C@H](C/C=C(\C)CC/C=C(\C)CCC=C(C)C)[C@@H](C)C1=O |  | Balb/c mice male, whole blood | oral, 50 mg/kg, 4 h |  | blood concentration | 24.5 nM
CN1C[C@H](COc2nccc3c(NCc4ccco4)cc(Cl)nc23)OC1=O |  | rabbit, isolated Langendorff heart | dose not given |  | effect on LVEDP | negative
FC(F)(F)c1ccc(CNc2ccc(Cc3c[nH]c4ncc(Cl)cc34)cn2)cn1 |  | patients with advanced solid tumours | oral, 1000 mg/day, all patients, all grades |  | dry mouth incidence | 7%
CCN1/C(=C/C(C)=O)Sc2ccc(F)cc21 |  | cynomolgus monkey | oral, 10 mg/kg, 2 h post-dose |  | diastolic blood pressure | 76 ± 4 mmHg
O=c1[nH]c(=O)n([C@@H]2O[C@H](CO)[C@@H](O)[C@@H]2F)cc1[125I] |  | nude mice, tumour-bearing, blood | dose not given, 2 h |  | blood radioactivity remaining | 0.69 ± 0.26 %ID/g

Structure (SMILES) | test | test system | conditions | how to read | endpoint | result
Cn1cc([C@H]2C[C@H]3CSC(N)=N[C@@]3(c3ccc(F)cc3F)CO2)cn1 |  | male 129/SVE mouse, brain | subcutaneous, 10 mg/kg, 13 h |  | brain concentration | 65 nM
CCc1ccc(-c2ccc(-c3cc(F)c(F)c(F)c3)c(F)c2)cc1 | measured: compound | human pregnant women, male fetuses, cord serum | dose not given, paired maternal-cord samples, mean |  | concentration | 0.97 ng/mL
CCN1CCN(C(=O)N[C@@H](C(=O)N[C@@H]2C(=O)N3[C@@H]2SC(C)(C)[C@@H]3C(=O)O)c2ccccc2)C(=O)C1=O |  | human whole blood | concentration not given, 48 h, 4 °C |  | deviation from nominal concentration | -7.5%
O=C([O-])CCCCC1(N(CC(=O)[O-])CC(=O)[O-])CN(CC(=O)[O-])CCN(CC(=O)[O-])C1.[Bi+3] |  | 0.15 M NaClO4 | 25 °C, protonation of Bi(L)H-1 complex |  | formation constant | 338 M⁻¹
CCc1cc(C(=O)NC)c2nccc(N3CCc4c(cc(Cn5ccnc5)cc4-c4cn(C)nc4C(F)(F)F)C3=O)c2c1 |  | Sprague Dawley rat | oral, 100 mg/kg once daily, 7 days |  | kidney weight | 2.59 ± 0.061 g
Cn1ncc(S(=O)(=O)NCc2ccccc2Cn2cncn2)c1C(=O)O | colloidal aggregate formation, dynamic light scattering | 50 mM potassium phosphate buffer | 200 µM, pH 7.0, 1% DMSO | higher = more aggregation | DLS scattered light intensity | 556000 counts/s
CNC(=O)c1ccc(-c2cnc3ncc(Cc4ccc5ncccc5c4)n3n2)cc1F | measured: Insomnia | cancer patients | oral, dose not given, dose escalation, grade 3-4 |  | patients with adverse event | 0%
CC(C)(Sc1ccncc1-c1ccc(C#N)c2ccccc12)C(=O)O |  | human, urine | oral, 2.5 mg, together with: febuxostat 10 mg |  | fraction excreted in urine (0-24 h) | 1.26%
COC(=O)c1cc(C)cc(NS(=O)(=O)c2cc(Cl)cc(Cl)c2O)c1 | colloidal aggregate formation, dynamic light scattering | 50 mM potassium phosphate buffer | 200 µM, pH 7.0, 1% DMSO | higher = more aggregation | DLS scattered light intensity | 881000 counts/s
O=C(CCCN1CC=C(n2c(=O)[nH]c3ccccc32)CC1)c1ccc(F)cc1 |  | male Hartley guinea pig, anaesthetized | intravenous infusion, 0.3 mg/kg, 10 min infusion, post-infusion |  | QTc interval | 385 ± 0.6 ms
COCCOc1cnc2ccn([C@H](C)c3nnc4c(F)cc(-c5cnn(C)c5)cn34)c(=O)c2c1 |  | patients, plasma | oral, 150 mg once daily, day 1 |  | Cmax | 2730 ng/mL
COc1cc(C(=O)N2CCC3(CC2)CC(=O)c2c(cnn2C(C)C)C3)cc(-c2ccc(C(=O)O)cc2)n1 | measured: direct LDL cholesterol | human, fasting serum | 3 mg every 12 h, day 13, adjusted geometric mean | reference: baseline and placebo | placebo-adjusted change from baseline | 6.2%
COc1cccc2c(N3CCC(CCP(=O)(O)O)CC3)ncnc12 |  | mouse, breast cancer, serum, tumour, organs | 50 mg/kg, 7 days | reference: vehicle | pyrophosphate level | no effect
CN(C)c1ccc2c(c1)c(=O)n(-c1ccc(C[C@H](NC(=O)c3c(Cl)cccc3Cl)C(=O)O)cc1)c(=O)n2C |  | cynomolgus monkey, hepatocyte suspension | dose not given, scaled in vitro unbound |  | active intrinsic uptake clearance | 268 mL/min/kg
CC1(C)CCc2sc(CNS(=O)(=O)c3occc3C(=O)O)cc2C1 | colloidal aggregate formation, dynamic light scattering | 50 mM potassium phosphate buffer | 200 µM, pH 7.0, 1% DMSO | higher = more aggregation | DLS scattered light intensity | 477000 counts/s
NC1(C(=O)N[C@@H](CCO)c2ccc(Cl)cc2)CCN(c2nc[nH]c3nccc2-3)CC1 |  | metastatic CRPC patients | 480 mg b.i.d., grade 3 to 4, treatment-related, together with: enzalutamide 160 mg daily |  | incidence of Leukopenia | 0%
Cn1ncc(S(=O)(=O)NC2CCSc3ccc(Cl)cc32)c1C(=O)O (stereo not drawn) | colloidal aggregate formation, dynamic light scattering | 50 mM potassium phosphate buffer | 200 µM, pH 7.0, 1% DMSO | higher = more aggregation | DLS scattered light intensity | 296000 counts/s
CCO[C@H]1CCN(Cc2c(OC)cc(C)c3[nH]ccc23)[C@H](c2ccc(C(=O)O)cc2)C1 |  | PNH patients, active haemolysis | oral, 50 mg, 4 weeks, treatment |  | incidence of GGT increase | 0%
COc1cccc(OC)c1-c1cc(C(=O)NC2(C(=O)O)C3CC4CC(C3)CC2C4)nn1-c1ccc(C(=O)N(C)CCCN(C)CCCN(C)C(=O)CN2CCN(CC(=O)[O-])CCN(CC(=O)[O-])CCN(CC(=O)[O-])CC2)cc1C(C)C.[177Lu+3] (stereo not drawn) |  | mouse, HT-29 xenograft | 168 h post injection, biodistribution | reference: tumour over brain uptake | tumour-to-brain ratio | 21.9
